# Measured values gathered from unrelated publications.
# A part holds a random share of what one study measured.
# UniProt Q9Y2U5, sequence (whole entry, looked up): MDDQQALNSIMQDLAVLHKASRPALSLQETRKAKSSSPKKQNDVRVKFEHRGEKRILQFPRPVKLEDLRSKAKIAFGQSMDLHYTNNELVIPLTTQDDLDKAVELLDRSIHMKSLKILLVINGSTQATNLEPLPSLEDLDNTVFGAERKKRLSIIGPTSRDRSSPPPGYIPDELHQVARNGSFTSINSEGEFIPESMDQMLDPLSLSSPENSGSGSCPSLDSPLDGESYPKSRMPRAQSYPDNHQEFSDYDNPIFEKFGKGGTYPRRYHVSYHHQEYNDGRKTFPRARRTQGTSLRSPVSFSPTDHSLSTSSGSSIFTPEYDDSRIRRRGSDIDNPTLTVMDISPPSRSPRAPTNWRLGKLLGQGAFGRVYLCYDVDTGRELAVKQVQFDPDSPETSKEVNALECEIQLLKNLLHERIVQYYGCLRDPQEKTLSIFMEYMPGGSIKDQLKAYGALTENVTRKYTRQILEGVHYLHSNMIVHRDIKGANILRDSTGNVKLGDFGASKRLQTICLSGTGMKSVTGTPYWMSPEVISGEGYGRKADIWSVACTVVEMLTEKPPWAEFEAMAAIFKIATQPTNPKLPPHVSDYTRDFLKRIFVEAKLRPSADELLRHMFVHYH
# UniProt Q8WU08, sequence (whole entry, looked up): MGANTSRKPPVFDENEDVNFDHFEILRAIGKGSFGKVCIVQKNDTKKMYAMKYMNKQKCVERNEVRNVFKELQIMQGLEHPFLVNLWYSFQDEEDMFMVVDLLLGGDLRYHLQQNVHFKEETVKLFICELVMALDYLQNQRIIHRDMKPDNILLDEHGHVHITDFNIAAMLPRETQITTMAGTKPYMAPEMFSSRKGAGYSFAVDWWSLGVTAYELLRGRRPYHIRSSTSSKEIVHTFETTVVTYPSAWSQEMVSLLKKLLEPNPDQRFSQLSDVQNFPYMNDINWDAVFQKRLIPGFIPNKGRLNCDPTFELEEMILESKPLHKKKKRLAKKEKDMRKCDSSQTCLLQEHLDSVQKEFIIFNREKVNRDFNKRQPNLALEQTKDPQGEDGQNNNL
# UniProt Q6P2M8, sequence (whole entry, looked up): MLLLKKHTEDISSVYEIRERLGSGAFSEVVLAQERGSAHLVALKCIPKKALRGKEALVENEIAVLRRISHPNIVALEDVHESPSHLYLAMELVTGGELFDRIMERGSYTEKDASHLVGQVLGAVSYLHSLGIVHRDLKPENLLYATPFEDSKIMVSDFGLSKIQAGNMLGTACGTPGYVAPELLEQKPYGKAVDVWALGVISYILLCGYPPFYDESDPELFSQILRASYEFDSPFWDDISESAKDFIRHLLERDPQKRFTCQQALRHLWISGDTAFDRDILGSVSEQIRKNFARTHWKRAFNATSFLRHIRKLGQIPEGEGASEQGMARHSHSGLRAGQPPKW
# UniProt Q96RR4, sequence (whole entry, looked up): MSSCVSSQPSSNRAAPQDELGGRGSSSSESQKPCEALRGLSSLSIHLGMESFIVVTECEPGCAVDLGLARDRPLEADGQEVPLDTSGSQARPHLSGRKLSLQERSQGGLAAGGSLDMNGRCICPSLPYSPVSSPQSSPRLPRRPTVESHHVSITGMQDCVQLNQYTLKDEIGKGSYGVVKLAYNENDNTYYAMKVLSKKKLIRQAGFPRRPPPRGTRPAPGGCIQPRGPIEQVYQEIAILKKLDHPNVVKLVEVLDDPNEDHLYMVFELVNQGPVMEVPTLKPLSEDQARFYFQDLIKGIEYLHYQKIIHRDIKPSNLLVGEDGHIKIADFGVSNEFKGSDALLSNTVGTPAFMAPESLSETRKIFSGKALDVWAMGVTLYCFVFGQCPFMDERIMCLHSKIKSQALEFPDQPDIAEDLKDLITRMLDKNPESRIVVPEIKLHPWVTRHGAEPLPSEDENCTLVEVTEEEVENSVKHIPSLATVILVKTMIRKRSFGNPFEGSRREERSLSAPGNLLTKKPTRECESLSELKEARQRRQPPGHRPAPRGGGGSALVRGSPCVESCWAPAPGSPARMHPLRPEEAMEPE
# UniProt P41743, sequence (whole entry, looked up): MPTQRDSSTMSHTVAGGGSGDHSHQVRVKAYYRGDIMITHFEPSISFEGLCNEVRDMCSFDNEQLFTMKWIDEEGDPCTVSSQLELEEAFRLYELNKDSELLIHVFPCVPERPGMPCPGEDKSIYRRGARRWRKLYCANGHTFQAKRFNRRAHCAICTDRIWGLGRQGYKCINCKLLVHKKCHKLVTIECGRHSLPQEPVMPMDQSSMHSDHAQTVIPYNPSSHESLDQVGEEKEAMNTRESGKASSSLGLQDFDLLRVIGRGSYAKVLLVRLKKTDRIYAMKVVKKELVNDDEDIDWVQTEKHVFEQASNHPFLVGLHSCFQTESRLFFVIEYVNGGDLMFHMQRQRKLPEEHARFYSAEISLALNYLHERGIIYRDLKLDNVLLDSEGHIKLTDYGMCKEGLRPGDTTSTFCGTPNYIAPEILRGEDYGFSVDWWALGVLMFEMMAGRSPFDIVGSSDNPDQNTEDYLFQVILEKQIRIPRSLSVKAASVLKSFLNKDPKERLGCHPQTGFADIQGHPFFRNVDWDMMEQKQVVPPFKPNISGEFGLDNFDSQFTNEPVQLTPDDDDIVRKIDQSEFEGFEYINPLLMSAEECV
# UniProt P51957, sequence (whole entry, looked up): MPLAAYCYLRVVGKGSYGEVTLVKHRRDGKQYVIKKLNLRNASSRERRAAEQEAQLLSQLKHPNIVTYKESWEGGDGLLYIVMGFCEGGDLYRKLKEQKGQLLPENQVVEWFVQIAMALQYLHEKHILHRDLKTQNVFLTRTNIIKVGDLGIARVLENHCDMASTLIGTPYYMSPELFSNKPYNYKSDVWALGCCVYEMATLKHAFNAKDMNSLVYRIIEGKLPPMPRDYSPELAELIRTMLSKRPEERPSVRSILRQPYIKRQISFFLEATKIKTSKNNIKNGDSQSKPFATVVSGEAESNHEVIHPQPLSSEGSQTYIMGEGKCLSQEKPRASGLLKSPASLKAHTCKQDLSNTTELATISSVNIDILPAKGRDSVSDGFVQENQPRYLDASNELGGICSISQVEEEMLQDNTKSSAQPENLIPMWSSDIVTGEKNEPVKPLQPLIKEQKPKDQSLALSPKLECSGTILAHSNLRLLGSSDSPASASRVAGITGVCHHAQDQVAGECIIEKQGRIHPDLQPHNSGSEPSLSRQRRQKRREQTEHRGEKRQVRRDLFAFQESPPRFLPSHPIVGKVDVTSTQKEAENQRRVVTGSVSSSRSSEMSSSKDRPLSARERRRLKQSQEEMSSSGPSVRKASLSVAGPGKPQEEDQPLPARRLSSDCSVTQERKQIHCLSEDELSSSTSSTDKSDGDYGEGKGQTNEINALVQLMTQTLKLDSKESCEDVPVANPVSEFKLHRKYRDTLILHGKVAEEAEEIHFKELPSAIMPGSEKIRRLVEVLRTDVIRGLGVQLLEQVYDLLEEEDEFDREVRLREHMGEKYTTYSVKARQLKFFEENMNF
# UniProt P54646, sequence (whole entry, looked up): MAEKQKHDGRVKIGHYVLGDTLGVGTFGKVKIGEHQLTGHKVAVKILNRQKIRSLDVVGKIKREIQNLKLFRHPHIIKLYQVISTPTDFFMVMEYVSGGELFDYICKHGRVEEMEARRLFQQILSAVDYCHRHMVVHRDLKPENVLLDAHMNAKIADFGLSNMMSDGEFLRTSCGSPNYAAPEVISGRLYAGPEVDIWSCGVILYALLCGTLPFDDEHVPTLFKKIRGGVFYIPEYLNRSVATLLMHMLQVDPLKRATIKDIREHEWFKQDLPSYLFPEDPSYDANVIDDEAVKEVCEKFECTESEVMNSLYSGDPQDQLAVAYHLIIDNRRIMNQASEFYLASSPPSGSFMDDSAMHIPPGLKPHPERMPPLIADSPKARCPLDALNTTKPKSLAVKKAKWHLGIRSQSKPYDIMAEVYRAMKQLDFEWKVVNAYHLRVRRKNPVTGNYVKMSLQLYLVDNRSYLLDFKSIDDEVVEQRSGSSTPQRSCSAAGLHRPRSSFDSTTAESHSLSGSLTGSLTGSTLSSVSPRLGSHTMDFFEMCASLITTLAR
# UniProt O14733, sequence (whole entry, looked up): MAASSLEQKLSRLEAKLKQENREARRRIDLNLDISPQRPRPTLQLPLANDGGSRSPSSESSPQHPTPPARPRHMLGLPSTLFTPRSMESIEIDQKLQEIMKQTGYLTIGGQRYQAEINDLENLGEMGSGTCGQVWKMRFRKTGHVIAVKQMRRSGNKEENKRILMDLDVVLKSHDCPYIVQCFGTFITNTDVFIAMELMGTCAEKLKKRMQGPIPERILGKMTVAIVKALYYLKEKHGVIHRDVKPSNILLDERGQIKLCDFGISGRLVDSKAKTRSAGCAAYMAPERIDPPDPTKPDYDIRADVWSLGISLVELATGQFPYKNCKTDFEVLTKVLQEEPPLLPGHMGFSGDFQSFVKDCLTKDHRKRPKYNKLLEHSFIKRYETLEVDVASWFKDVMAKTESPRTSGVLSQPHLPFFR

# Set 1
# Target: PABPC1L2, full length, GST fusion (mouse, UniProt A0ABA7IW68)
# Technique: RNAcompete
# Form: RNA
# Medium: in vitro
# Tested at: 20 nM
# Setting: 7-mer, probes averaged, single round
# Baseline: mean of 7-mers
# Direction: higher = stronger binding
# Target sequence (chain): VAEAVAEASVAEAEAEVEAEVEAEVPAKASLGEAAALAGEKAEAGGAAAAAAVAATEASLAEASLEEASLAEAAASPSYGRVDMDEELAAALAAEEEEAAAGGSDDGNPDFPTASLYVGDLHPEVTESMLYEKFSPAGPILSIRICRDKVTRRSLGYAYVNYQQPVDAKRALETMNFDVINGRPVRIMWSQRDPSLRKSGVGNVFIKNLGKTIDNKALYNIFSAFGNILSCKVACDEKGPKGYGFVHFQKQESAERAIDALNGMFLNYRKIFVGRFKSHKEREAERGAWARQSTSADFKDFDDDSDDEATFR
Strand,7-mer Z-score
UUCUAAG,-0.438
CUCAAAU,-0.17
GUGAUGA,-0.238
UCAGCUU,-0.255
GUAUGGU,-0.222
UCUCACG,-0.282
GUUGCCG,-0.235
AAGUGAA,0.644

# Set 2
# SMILES: Cc1cc(C)c(-n2ccn3nc(-c4cccnc4)cc23)cc1NC(=O)c1cc(C#N)cc(S(F)(F)(F)(F)F)c1
# Technique: competition with immobilised ligand
# Tested at: 0.1 µM
target,read-out,remaining binding [%]
"Serine/threonine-protein kinase Nek4 (NEK4, Homo sapiens, UniProt P51957)",cell-free assay,90.2
"G protein-coupled receptor kinase 3 (GRK3, Homo sapiens, UniProt P35626)",cell-free assay,90.6
"Phosphatidylinositol 4,5-bisphosphate 3-kinase catalytic subunit delta isoform (PIK3CD, Homo sapiens, UniProt O00329)",cell-free assay,76.9
"Protein kinase C iota type (PRKCI, Homo sapiens, UniProt P41743)",cell-free assay,100
"Tyrosine-protein kinase ABL1, phosphorylated (ABL1, Homo sapiens, UniProt P00519, E255K)",binding,74.5
"Rhodopsin kinase GRK1 (GRK1, Homo sapiens, UniProt Q15835)",cell-free assay,71.2
"Dual specificity mitogen-activated protein kinase kinase 7 (MAP2K7, Homo sapiens, UniProt O14733)",cell-free assay,70.8
"Focal adhesion kinase 1 (PTK2, Homo sapiens, UniProt Q05397)",cell-free assay,100
"Serine/threonine-protein kinase 32A (STK32A, Homo sapiens, UniProt Q8WU08)",cell-free assay,100
"Calcium/calmodulin-dependent protein kinase type 1B (PNCK, Homo sapiens, UniProt Q6P2M8)",cell-free assay,83.6
"Serine/threonine-protein kinase 24 (STK24, Homo sapiens, UniProt Q9Y6E0)",cell-free assay,75.9
"Homeodomain-interacting protein kinase 3 (HIPK3, Homo sapiens, UniProt Q9H422)",cell-free assay,80.7
"5'-AMP-activated protein kinase catalytic subunit alpha-2 (PRKAA2, Homo sapiens, UniProt P54646)",cell-free assay,82.7
"Calcium/calmodulin-dependent protein kinase kinase 2 (CAMKK2, Homo sapiens, UniProt Q96RR4)",cell-free assay,89

# Set 3
# SMILES: Cc1cncc2cccc(S(=O)(=O)N3CCCN(C(=O)CN)C[C@@H]3C)c12
# Read-out: enzyme activity
# Mode: inhibitor
# Tested at: 0.5 µM
# Baseline: control
target,remaining activity
"Mitogen-activated protein kinase kinase kinase 2 (MAP3K2, Homo sapiens, UniProt Q9Y2U5)",92.1%
"Serine/threonine-protein kinase BRSK1 (BRSK1, Homo sapiens, UniProt Q8TDC3)",94.2%
"Casein kinase II subunit alpha' (CSNK2A2, Homo sapiens, UniProt P19784)",99.3%
"Rho-associated protein kinase 2 (ROCK2, Homo sapiens, UniProt O75116)",3.22%

# Set 4
# Target: Protein C-ets-1 (ETS1, Homo sapiens, UniProt P14921, residues 1-441, full length assumed)
# UniProt P14921, sequence (whole entry, looked up): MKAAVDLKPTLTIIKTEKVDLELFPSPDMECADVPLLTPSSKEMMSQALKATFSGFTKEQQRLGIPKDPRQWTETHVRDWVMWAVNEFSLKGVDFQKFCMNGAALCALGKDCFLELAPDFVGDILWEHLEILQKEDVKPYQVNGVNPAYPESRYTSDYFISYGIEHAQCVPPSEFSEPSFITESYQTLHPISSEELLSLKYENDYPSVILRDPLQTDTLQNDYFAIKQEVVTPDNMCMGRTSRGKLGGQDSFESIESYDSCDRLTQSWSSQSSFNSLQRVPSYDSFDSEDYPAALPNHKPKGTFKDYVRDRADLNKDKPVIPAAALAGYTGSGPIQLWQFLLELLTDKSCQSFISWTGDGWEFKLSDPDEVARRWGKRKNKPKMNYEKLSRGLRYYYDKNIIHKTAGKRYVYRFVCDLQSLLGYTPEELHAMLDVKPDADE
# Technique: protein-binding microarray
# Form: double-stranded DNA, one strand shown
# Medium: in vitro
# Tested at: not given
# Setting: k-mer, scored over probes, only values ≥0.25
# Direction: higher = stronger binding
Strand,E-score
ATATATCC,0.356
CCGACCGG,0.324
ACCTCCGC,0.256
AGCCTTCC,0.29
AGGCCGGA,0.383
CCGCGTCC,0.335
GGGGGAGA,0.253
ACAGGAAC,0.354
